Assay results of several laboratories.
Each line is one published result; not all experiments were run side by side. ± gives the spread as reported.
Target: ATP-dependent translocase ABCB1 (ABCB1, Homo sapiens, UniProt P08183)
Sequence of UniProt P08183 (whole entry, looked up): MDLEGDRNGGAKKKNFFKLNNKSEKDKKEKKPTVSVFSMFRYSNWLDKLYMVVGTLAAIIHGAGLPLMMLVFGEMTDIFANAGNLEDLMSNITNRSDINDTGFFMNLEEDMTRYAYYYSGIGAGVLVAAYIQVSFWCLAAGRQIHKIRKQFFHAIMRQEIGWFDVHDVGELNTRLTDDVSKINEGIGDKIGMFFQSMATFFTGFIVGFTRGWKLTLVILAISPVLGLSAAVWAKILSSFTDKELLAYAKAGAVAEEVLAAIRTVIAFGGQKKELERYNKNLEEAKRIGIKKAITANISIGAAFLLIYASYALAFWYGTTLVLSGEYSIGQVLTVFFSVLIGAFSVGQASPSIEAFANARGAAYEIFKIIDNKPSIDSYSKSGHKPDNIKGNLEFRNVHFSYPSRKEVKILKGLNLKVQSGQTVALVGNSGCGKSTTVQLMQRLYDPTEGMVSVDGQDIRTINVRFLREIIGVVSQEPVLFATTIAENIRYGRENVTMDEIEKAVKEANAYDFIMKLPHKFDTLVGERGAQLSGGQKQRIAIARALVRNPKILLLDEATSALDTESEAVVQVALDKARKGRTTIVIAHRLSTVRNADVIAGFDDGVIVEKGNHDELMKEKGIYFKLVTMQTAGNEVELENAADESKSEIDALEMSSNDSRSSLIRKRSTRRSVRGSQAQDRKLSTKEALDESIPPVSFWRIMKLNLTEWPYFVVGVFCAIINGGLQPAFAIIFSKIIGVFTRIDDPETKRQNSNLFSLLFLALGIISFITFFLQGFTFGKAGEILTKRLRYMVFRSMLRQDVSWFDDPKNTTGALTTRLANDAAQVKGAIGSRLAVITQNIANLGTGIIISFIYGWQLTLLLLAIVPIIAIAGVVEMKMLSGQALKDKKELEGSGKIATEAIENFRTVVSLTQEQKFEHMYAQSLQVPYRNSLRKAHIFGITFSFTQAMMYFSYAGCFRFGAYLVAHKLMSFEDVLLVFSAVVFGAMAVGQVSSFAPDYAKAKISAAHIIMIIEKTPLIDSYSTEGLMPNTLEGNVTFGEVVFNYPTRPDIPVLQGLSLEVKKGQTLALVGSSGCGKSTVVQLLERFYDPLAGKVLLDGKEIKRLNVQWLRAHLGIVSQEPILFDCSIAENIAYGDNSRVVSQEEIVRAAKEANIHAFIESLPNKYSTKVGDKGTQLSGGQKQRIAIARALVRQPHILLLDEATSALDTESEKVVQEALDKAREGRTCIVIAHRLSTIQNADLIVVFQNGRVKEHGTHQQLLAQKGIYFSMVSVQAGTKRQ

C/C(N)=N/C(=N\S(=O)(=O)c1ccc(C(F)(F)F)cc1)N1C[C@H](c2ccccc2)C(c2ccc(Cl)cc2)=N1 gave a Papp B-A of 5.4 ×10⁻⁶ cm/s (MDCK-MDR1 monolayers; 5 µM, 120 min, pH 7.4, added: valspodar 1 µM).
Under “effective efflux ratio”, OCCn1nc(-c2ccccc2)c2c(Cl)c(-c3ccccc3)nnc21 is recorded as 1.7 (MDCK-MDR1 and wild-type MDCK; 10 µM, 1 h, pH 7.4).
CNc1nc(N)nc2c1ncn2[C@@H]1O[C@H](CO)[C@@H](O)[C@@]1(C)F: “Papp B to A” 17.7 ± 1.9 ×10⁻⁶ cm/s (bidirectional transport; LLC-PK1, human MDR1, transfected with; 10 µM, added: zosuquidar 1 µM).
Cc1cc(C(=O)N[C@@H](CC(=O)NC(C)(C)C)C(=O)NCCNC(=O)c2cccc(-c3cc[nH]n3)c2)no1 has an apparent permeability of 0 ×10⁻⁶ cm/s (ABCB1-expressing cell monolayer; 10 µM, apical to basolateral).
C=CC(=O)N1CC2C(=O)N(CCN(C)C)c3c(c4cc(Cl)c(-c5c(O)cccc5F)nc4n(-c4c(C)ccnc4C(C)C)c3=O)N2CC1C (centres unmarked) has an efflux ratio of 3.5 (MDCK-MDR1; reference: B-A over A-B).
Cc1cc(C(=O)N[C@@H](CC(=O)NC(C)(C)C)C(=O)NCCNC(=O)c2cc(-c3ccccc3)ccn2)no1 gave an apparent permeability of 0.5 ×10⁻⁶ cm/s (ABCB1-expressing cell monolayer; 10 µM, apical to basolateral).
Under “Papp B to A”, CNc1nc(N)nc2c1ncn2[C@@H]1O[C@H](CO[P@](=O)(O)N[C@@H](C)C(=O)O)[C@@H](O)[C@@]1(C)F is recorded as 5.68 ± 0.22 ×10⁻⁶ cm/s (bidirectional transport; LLC-PK1, human MDR1, transfected with; 10 µM).
With N[C@H]1[C@H](O[C@H]2[C@H](O)[C@@H](N)[C@H](O[C@H]3[C@H](O)[C@@H](N)[C@H](O[C@H]4[C@H](O)[C@@H](N)C(O)O[C@@H]4CO)O[C@@H]3CO)O[C@@H]2CO)O[C@H](CO)[C@@H](O)[C@@H]1O (some centres unmarked) the Rmax was 236 RU (binding, SPR; SMALP from MCF-7/ADR).

Some of these lines once more:
C=CC(=O)N1CC2C(=O)N(CCN(C)C)c3c(c4cc(Cl)c(-c5c(O)cccc5F)nc4n(-c4c(C)ccnc4C(C)C)c3=O)N2CC1C (centres unmarked) has an efflux ratio of 3.5 (MDCK-MDR1; reference: B-A over A-B).
